Experimental data gathered from unrelated publications.
Each numbered part is a random draw from the data of one study; scales do not carry over between parts. Substitutions count along the parent as printed.

Sample 1
Target: Histone acetyltransferase KAT6A, both winged helices, GST fusion (KAT6A, Homo sapiens, UniProt Q92794, residues 1-181)
Technique: protein binding microarray
Form: double-stranded DNA, one strand shown
Matrix: in vitro
Tested at: not given
Notes: 8-mer, flanks averaged, mean of 2 arrays, mostly near background
Baseline: not given
Reading: higher = stronger binding
Target sequence (chain): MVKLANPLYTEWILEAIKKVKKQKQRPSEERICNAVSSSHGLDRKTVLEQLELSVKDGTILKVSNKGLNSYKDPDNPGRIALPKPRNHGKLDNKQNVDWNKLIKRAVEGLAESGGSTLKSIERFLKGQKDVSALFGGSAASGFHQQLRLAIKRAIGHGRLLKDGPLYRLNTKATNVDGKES
| Oligonucleotide | E-score |
| --- | --- |
| CGGGAATC | 0.165 |
| AGATACCA | -0.0196 |
| ATTAACAA | -0.00792 |
| GTTTAACA | -0.108 |
| GGGCCTAC | -0.0503 |
| CCCTAGTC | -0.238 |
| CGGGCCTA | 0.12 |
| ACAGTCAT | -0.0472 |
| AAACGACG | 0.149 |
| AGTATCTG | -0.275 |
| CGTACAAC | 0.157 |
| CTCTCTAC | -0.152 |
| AAGCCTTG | -0.023 |
| CACGATCA | -0.0509 |
| ATAGTGTG | -0.098 |
| ATTGAGGA | -0.0571 |
| ACGCTTCG | 0.16 |
| GAACATAA | -0.0443 |
| GATTTCTA | 0.0623 |
| ACATTGGA | -0.0104 |
| GATAGGCC | -0.0223 |
| GAATATTA | 0.0268 |
| ACTGACCG | 0.22 |
| ATTCATAG | -0.0843 |
| AGGTGGAC | -0.16 |

Sample 2
Target: Hepatocyte nuclear factor 3-beta, forkhead domain (FOXA2, Homo sapiens, UniProt Q9Y261, residues 142-269)
Technique: protein-binding microarray
Form: double-stranded DNA, one strand shown
Matrix: in vitro
Tested at: not given
Notes: k-mer, scored over probes, only values ≥0.25
Reading: higher = stronger binding
Target sequence (chain): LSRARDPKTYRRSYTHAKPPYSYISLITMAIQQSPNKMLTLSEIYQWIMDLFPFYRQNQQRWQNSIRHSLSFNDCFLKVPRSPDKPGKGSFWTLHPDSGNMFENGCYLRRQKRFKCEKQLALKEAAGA
| Oligonucleotide | E-score |
| --- | --- |
| ATATTATC | 0.271 |
| CATTATCA | 0.291 |
| TGACACAA | 0.309 |
| ACAACTCA | 0.256 |
| AATATACT | 0.253 |
| TATTCCGA | 0.275 |
| TAATAACA | 0.266 |
| ATCATCAT | 0.257 |
| AAACACAG | 0.267 |
| CTTGTGTA | 0.324 |
| ATTATATC | 0.289 |
| ATGGTCAA | 0.255 |
| CAGATAAC | 0.27 |
| AATGTTGT | 0.259 |
| TATATAGA | 0.37 |
| GTGCTATA | 0.251 |
| CATAAGAA | 0.268 |
| AAGTCATA | 0.292 |
| ATTAGACG | 0.255 |

Sample 3
Target: RING finger protein unkempt homolog, zinc fingers 1-6, GST-SBP tag (UNK, Homo sapiens, UniProt Q9C0B0, residues 30-357)
UniProt Q9C0B0, sequence (30-357, looked up): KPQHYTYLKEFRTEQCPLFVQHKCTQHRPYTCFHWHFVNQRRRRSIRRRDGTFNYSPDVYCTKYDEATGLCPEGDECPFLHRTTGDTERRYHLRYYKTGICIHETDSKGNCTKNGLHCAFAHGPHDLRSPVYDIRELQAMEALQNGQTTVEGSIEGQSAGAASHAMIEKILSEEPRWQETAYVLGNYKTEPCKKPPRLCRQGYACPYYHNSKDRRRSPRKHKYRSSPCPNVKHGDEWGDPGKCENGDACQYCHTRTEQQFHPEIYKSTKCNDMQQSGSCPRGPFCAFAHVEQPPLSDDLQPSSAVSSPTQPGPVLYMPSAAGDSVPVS
Technique: RNA Bind-n-Seq
Form: RNA
Matrix: in vitro
Tested at: not given
Notes: RNA with constant flanks, human-mouse chimeric sites, ends assumed
Baseline: input RNA pool
Reading: higher = stronger binding
Shared flanks, not repeated: GGGAGUUCUACAGUCCGACGAUC … CAACAGAGGAUUGAGCAUCA
| Oligonucleotide | bound/input enrichment [ratio] |
| --- | --- |
| UACUCAACUUUCUUUCCACGUUUUGAAUUCCAAGACAUUAUUCCUCCAGAUGACUUCCUAACGAGUGAUGAAGAGCAAGAUUUGGUUUUAUUUGGAACUAUGAGAGGACAAGUUGUUGGA | 0.131 |
| ACCAUUUUCGCGGUUCAGGCUUUGUGUGUAGUUCACUCUAUGUAUUAAAUUAUUAUUCUGCUUAGCUUAUAAUAAGGAUAAUUGCAUUUAAAGAGGUUACUGAAUGUUGUUAUUGUUCUU | 1.69 |
| UGGCGCCUGCGCUCCCCACUCGUGUUUUUAAGUGUAUUUUUAUAAGAUACAUGUAUUUACAAUUGAGCUUUUGUUACUAUAAUACUGAAUGCUACUGGAGAUUAUGAAAAAAUGUUAAAU | 0.263 |
| GUACUGCAGCAGCAGGGAAAACUGCAGGAAGCACUGAUGCACUAUAAGGAGGCUAUUCGAAUCAGUCCUACCUUUGCUGAUGCCUACUCUAAUAUGGGAAACACUCUAAAGGAGAUGCAG | 0.318 |
| GUCAACAGCUGCCUCAAUCCCAUUCUCUACGCCUUCCUGGAUGAGAACUUCAAGGCCUGCUUCCGCAAGUUCUGCUGUGCAUCUGCCCUGCACCGGGACGUGCAGGUGUCUGACCGCGUG | 0.445 |
| UGUGCCCCACAAGAUCCUACCUGAGUGGCAGCUGAAGUUGACUCCCUCUCCUUGCCUGAACCCCCCCCCACUGCCCCCCCAUCCCCCGCAGAAUUCCGAGAUGUUGCCUCUGCACGGUUC | 1.32 |
| GAAUCCUACUCAGGCGGAUUUUGCAACCUGAAUGCAACAGCAGCAGCUCCAUAGUCACAGUAGGGUAGUUUUGGGGCUCUGUGGCCAGGGUUUUAUUCACAUGCAGGUUUGGAAAAUGUA | 0.713 |
| GCACUUCUCAAAUACUGGCCAAAGACUCACAGUCCAAAAGAAGUAAUGUUCUUAAACGAAUUAGAAGAAAUUUUAGAUGUAAUUGAACCAUCAGAGUUUGUGAAGAUCAUGGAGCCUCUU | 1.66 |

Sample 4
Target: ABI1, truncated, D143A, DHFR fusion (Arabidopsis thaliana)
Technique: DHFR PCA, deep sequencing
Matrix: yeast
Notes: methotrexate growth selection, single substitutions
Together with: (+)-ABA 1.4 µM
Baseline: wild-type fitted maximum
Reading: higher = stronger binding
Starting sequence: PYL1, truncated, DHFR fusion (Arabidopsis thaliana); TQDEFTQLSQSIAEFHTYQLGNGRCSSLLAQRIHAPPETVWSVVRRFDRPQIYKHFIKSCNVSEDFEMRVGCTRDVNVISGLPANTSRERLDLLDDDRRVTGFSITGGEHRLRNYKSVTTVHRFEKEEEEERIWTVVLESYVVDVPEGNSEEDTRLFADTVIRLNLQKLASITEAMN; partner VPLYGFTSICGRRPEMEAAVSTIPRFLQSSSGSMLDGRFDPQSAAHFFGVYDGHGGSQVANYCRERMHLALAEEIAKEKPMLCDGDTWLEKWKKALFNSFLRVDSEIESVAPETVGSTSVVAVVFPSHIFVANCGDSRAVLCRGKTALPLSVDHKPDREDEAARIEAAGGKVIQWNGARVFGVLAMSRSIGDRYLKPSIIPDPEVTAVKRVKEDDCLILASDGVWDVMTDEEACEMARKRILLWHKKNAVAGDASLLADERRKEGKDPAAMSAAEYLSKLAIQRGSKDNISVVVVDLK
| Variant | relative binding score [%] |
| --- | --- |
| V44K | -8.74 |
| D48W | -14.8 |
| F103N | -3.22 |
| R132Q | 85.6 |
| K116L | -5.16 |
| E4A | 54.1 |
| R49S | 46.4 |
| N22A | 69.3 |
| N77L | 46.7 |
| E64D | 64.1 |
| R24L | 21.1 |
| V43E | -17.7 |
| R99Y | 80.5 |
| V143W | -15.8 |
| T6M | 64 |
| D159A | -10.4 |

Sample 5
Target: CCNB3, cyclin fold, Cln2 fusion (human)
Technique: yeast growth competition, sequencing
Matrix: yeast
Notes: weak parent motif
Baseline: not given
Reading: higher = stronger binding
Starting sequence: WEE1 docking peptide (human); HKTFRKLRLFDTP
| Variant | normalised enrichment score |
| --- | --- |
| L7Q | 0.545 |
| T12H | 0.531 |
| H1I | 1.12 |
| L7G | 0.453 |
| D11K | 0.0482 |
| R5A | -0.819 |
| P13E | -0.0631 |
| R8W | 0.629 |
| F10P | 0.489 |
| D11V | -0.144 |
| L9H | -0.164 |
| K2I | 0.106 |
| T12V | 0.583 |
| F10C | 0.111 |
| K6D | 0.518 |
| K2T | 0.465 |
| H1G | 0.00945 |
| T12C | 0.0879 |
| P13H | -0.415 |
| T3R | -0.118 |
